Results collected from several papers.
Protocols differ between the studies behind these lines.
Cell line: U-251

SMILES | assay | conditions | scale | measurement | value
COC(=O)[C@H](C)NC(=O)[C@H](C)NC(=O)c1csc(-c2cccnc2)n1 | cell growth or viability | – | – | EC50 | > 30 µM
Cc1ccc([N+](=O)[O-])cc1S(=O)(=O)N(C)/N=C/c1cnc2ccc(Br)cn12 | MTS | NCI60 panel | – | IC50 | 0.253 µM
O=C(O)C(CO)NCc1cc(Cl)c(OCc2cccc(-c3ccccc3)c2Br)cc1OCc1cccnc1 (stereo not drawn) | cell growth or viability, MTT | – | – | IC50 | > 10 µM
O=C(Nc1nnc2c1c(-c1ccc(Cl)cc1)nc1sc(=Cc3ccco3)c(=O)n12)c1ccccc1 (mixture of isomers) | SRB | 10 µM, NCI60 single-dose screen | relative to: untreated | cell growth | 48.7%
C1=[N+]2CCCC[N+]3=Cc4ccc5[n]4[Au-]23[n]2c1ccc2-c1nc2ccccc2nc1-5.F[P-](F)(F)(F)(F)F | – | NCI60 five-dose screen | – | IC50 | 2.6 µM
CN(C)CCN1CCN(c2ccc3nc(-c4ccc5nc(-c6ccc(C(F)(F)F)cc6)[nH]c5c4)[nH]c3c2)CC1 | SRB | 10 µM, 48 h | – | growth percent | 60%
Cn1ncc(-c2ccc3c(=O)[nH]nc(CN)c3c2)c1-c1c(F)c(Cl)cc(OC2CC2)c1C#N | cell viability, inhibitor, CellTiter-Glo | 120 h, baseline-subtracted | – | IC50 | 2.44 µM
COc1cc(/C=C/C(=O)/C=C(O)/C=C/c2ccc(OCC(=O)N3CCOCCOCCOCCOCCOCC3)c(OC)c2)ccc1OCC(=O)N1CCOCCOCCOCCOCCOCC1 | cell growth or viability, SRB | 25 µM | – | inhibition | 100%
C=C(NC(=O)c1csc(-c2cccnc2)n1)C(=O)NC(=C)C(=O)OC | cell growth or viability | – | – | EC50 | 3.6 µM
CCCC(CCC)C(=O)OCc1cn(-c2cc3ccccc3oc2=O)nn1 | – | 10 µM, CNS cancer cell line, NCI60 | – | growth percentage | 96.8%
CC(C)OC(=O)[C@H](CO)NCc1cc(Cl)c(OCc2cccc(-c3ccccc3)c2Br)cc1OCc1cccnc1 | cell growth or viability, MTT | – | – | IC50 | > 10 µM
COc1cc(/C=C/C(=O)/C=C(O)/C=C/c2ccc(OCC(=O)N3CCOCCOCCOCCOCC3)c(OC)c2)ccc1OCC(=O)N1CCOCCOCCOCCOCC1 | cell growth or viability, SRB | 25 µM | – | inhibition | 100%

Some of these lines once more:
SMILES | assay | conditions | scale | measurement | value
O=C(O)C(CO)NCc1cc(Cl)c(OCc2cccc(-c3ccccc3)c2Br)cc1OCc1cccnc1 (stereo not drawn) | cell growth or viability, MTT | – | – | IC50 | > 10 µM
